Measurements gathered from unrelated publications.
ALK: ALK tyrosine kinase receptor (ALK, Homo sapiens, UniProt Q9UM73)
UniProt Q9UM73, sequence (whole entry, unmodified, looked up): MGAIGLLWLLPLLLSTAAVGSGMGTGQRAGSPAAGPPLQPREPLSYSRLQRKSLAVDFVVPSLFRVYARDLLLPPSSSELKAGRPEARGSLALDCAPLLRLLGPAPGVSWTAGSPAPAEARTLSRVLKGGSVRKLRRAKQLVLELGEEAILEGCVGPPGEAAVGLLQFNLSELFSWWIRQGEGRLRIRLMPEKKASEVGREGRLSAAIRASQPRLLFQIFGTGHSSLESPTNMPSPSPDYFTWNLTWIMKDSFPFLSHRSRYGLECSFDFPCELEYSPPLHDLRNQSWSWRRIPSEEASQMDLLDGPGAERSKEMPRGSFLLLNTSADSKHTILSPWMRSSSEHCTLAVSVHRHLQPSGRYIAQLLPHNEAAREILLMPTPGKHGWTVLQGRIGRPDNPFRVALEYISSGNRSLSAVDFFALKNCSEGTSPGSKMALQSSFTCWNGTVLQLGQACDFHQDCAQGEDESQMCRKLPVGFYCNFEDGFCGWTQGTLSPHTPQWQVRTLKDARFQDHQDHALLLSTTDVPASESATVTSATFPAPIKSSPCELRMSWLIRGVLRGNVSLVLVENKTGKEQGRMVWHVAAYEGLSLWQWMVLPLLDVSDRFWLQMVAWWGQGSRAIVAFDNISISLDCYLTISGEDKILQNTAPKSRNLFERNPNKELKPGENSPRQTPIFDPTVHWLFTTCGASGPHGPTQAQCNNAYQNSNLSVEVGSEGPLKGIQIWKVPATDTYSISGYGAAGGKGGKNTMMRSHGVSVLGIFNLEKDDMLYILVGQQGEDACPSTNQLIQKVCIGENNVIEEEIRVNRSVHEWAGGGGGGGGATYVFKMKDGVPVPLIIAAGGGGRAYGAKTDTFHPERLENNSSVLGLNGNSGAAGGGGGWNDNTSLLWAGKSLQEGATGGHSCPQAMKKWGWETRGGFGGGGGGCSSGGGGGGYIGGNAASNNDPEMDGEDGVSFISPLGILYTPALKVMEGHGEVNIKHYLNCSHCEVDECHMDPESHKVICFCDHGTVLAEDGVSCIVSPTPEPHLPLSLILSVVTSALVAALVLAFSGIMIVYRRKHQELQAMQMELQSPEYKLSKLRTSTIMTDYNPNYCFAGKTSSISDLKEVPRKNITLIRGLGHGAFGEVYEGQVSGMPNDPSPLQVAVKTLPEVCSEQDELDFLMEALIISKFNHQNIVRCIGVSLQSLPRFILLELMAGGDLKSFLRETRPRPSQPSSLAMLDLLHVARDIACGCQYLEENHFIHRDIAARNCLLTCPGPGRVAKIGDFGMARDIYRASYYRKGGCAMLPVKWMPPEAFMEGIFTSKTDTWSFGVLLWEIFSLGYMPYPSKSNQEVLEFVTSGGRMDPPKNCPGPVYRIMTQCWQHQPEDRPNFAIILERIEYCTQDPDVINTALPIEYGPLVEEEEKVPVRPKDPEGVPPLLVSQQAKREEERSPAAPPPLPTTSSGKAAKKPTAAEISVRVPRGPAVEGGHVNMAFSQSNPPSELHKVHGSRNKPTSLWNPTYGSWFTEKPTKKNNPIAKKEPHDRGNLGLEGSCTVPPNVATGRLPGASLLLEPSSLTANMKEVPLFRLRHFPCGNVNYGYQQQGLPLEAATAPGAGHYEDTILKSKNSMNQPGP

| SMILES | target | assay | conditions | measurement | value |
| --- | --- | --- | --- | --- | --- |
| N=C(N)NCCC[C@@H]1NC(=O)[C@H](Cc2c[nH]c3ccccc23)NC(=O)[C@H](CCCNC(=N)N)NC(=O)[C@H](Cc2c[nH]c3ccccc23)NC(=O)[C@H](CCCNC(=N)N)NC(=O)[C@H](Cc2c[nH]c3ccccc23)NC(=O)[C@H](CCCNC(=N)N)NC(=O)[C@H](Cc2c[nH]c3ccccc23)NC(=O)[C@H](CCCNC(=N)N)NC(=O)[C@H](Cc2c[nH]c3ccccc23)NC(=O)[C@H](CCCNC(=N)N)NC(=O)[C@H](Cc2c[nH]c3ccccc23)NC(=O)[C@H](CCCNC(=N)N)NC(=O)[C@H](Cc2c[nH]c3ccccc23)NC1=O | ALK | enzyme activity, inhibitor | – | IC50 | < 250 nM |
| CCn1nc(Cl)c2c1-c1cnc(N)c(c1)O[C@H](C)c1cc(F)ccc1-c1nn(C)cc1C2 | ALK (Homo sapiens, UniProt Q9UM73, G1202R) | enzyme activity, inhibitor | together with: 1 mM ATP | IC50 | 0.9 nM |
| CN(C)/C=C/C(=O)c1ccc2[nH]c3ncc(-c4ccc(N5CCN(C)CC5)cc4)cc3c2c1 | ALK (Homo sapiens, UniProt Q9UM73, R1275Q) | enzyme activity, inhibitor, radiometric | – | IC50 | 250 nM |
| N=C(N)NCCC[C@@H]1NC(=O)[C@H](Cc2c[nH]c3ccccc23)NC(=O)[C@H](CCCNC(=N)N)NC(=O)[C@H](Cc2c[nH]c3ccccc23)NC(=O)[C@H](CCCNC(=N)N)NC(=O)[C@H](Cc2c[nH]c3ccccc23)NC(=O)[C@H](CCCNC(=N)N)NC(=O)[C@H](Cc2c[nH]c3ccccc23)NC(=O)[C@H](CCCNC(=N)N)NC(=O)[C@H](Cc2c[nH]c3ccccc23)NC(=O)[C@H](CCCNC(=N)N)NC(=O)[C@H](Cc2c[nH]c3ccccc23)NC(=O)[C@H](CCCNC(=N)N)NC(=O)[C@H](Cc2c[nH]c3ccccc23)NC(=O)[C@H](CCCNC(=N)N)NC(=O)[C@H](Cc2c[nH]c3ccccc23)NC(=O)[C@H](CCCNC(=N)N)NC(=O)[C@H](Cc2c[nH]c3ccccc23)NC1=O | ALK | enzyme activity, inhibitor | – | IC50 | < 250 nM |
| COc1cc(N2CCN(C(=O)C3CCCN3)CC2)ccc1Nc1ncc(Cl)c(Nc2ccccc2P(C)(C)=O)n1 (stereo not shown) | ALK | binding, ITC | – | Kd | 144 nM |
| CN(C(=O)c1ccn2ncc(-c3ccc(C(N)=O)cc3)c2c1)c1ccc(C#N)cn1 | ALK | enzyme activity, inhibitor | – | IC50 | > 10000 nM |
| Cn1cc(-c2cc3c(N4CCC[C@H](C(=O)NCc5ccc(OC(F)(F)F)cc5)C4)ncnc3[nH]2)cn1 | ALK | enzyme activity, inhibitor, TR-FRET | – | IC50 | < 10 nM |
| Cc1ccc2oc(-c3c4c(N)n[nH]c(=O)c4nn3-c3ccc(NC(=O)/C=C/CN(C)C)cc3)c(C)c2c1 | ALK | enzyme activity, inhibitor, ELISA | – | IC50 | > 1000 nM |
| Cc1nn(C)cc1-c1cc2c(N3CCC[C@H](C(=O)NCc4ccc(OC(F)(F)F)cc4)C3)ncnc2[nH]1 | ALK | enzyme activity, inhibitor, TR-FRET | – | IC50 | < 10 nM |
| C(=C\c1cnc2[nH]c3ccccc3c2c1)/c1ccccc1 | ALK | enzyme activity, inhibitor, ELISA | – | IC50 | 340 nM |
